Results gathered from unrelated publications.
Each numbered part is a random draw from the data of one study; scales do not carry over between parts.

Sample 1
Target: Ras GTPase-activating protein-binding protein 1, RRM domain (G3BP1, Homo sapiens, UniProt Q13283)
Chain of UniProt Q13283 (whole entry, looked up): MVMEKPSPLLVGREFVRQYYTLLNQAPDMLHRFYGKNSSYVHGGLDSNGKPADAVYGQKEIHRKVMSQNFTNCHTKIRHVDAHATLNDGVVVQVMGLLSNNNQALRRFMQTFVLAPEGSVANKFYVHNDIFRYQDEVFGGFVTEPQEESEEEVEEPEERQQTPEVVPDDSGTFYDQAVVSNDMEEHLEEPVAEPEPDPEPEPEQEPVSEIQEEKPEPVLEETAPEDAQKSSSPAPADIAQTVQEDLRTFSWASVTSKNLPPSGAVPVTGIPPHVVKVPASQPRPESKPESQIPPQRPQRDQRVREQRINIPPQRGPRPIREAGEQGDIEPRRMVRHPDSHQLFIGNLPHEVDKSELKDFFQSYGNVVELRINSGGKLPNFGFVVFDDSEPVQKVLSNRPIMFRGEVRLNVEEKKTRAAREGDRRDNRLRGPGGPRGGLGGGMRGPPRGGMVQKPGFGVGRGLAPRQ
Method: RNA Bind-n-Seq
Form: RNA
Matrix: in vitro
Concentration: 1 µM
Setting: whole 134-nt RNA, ends assumed
Added: 150 mM KCl
Baseline: input library
Direction: higher = stronger binding
Shared flanks, not repeated: GGGAGUUCUACAGUCCGACGAUC … UGGAAUUCUCGGGUGUCAAGG
For `UUUGCUUGCAGUAUCUGUUUCUCUUCCUAGGCUCAAGUUGGUGACCCAAGCCUAUUGUAAACAAGUGAUUAUCUCAAAGGGAGAUGCCAA`, the log2 enrichment was -0.00758.
The log2 enrichment of `GCAGGAAGUAAAAACAAAUGGAAAUGCUUCGGAUAGGGGCAGGGGUGGGGGUUGCUAAGGAAAGGGUGGGAUGGGAGUGGGUAAAGAGUU` is reported as 0.915.
The log2 enrichment of `CCUGUGCUACACAUCGUAUGUACCGAAUCGGCCCCCCCGGGCCCCCCCGGGCCCCCCCGGAAAGUAUUAUGUUACGCCGUUCGGAUCUGC` is reported as -0.65.
The log2 enrichment of `AGUCCUGUGCUACACAUCGUAUGUACCGAAUCGGGAAAAGGGGAAAAGGGAAAAGGGGAAAGUAUUAUGUUACGCCGUUCGGAUCUGCAC` is reported as 0.449.
The log2 enrichment of `UGGCCCUGGUGGCAGGCGGGGAGGAAGAGGUGGCCUCAUGGAUCGUGGUGGUCCCGGUGGAAUGUUCAGAGGUGGCCGUGGUGGAGACAG` is reported as 0.93.
`AAGUCCUGUGCUACACAUCGUAUGUACCGAAUCGGGGAGGGGAAAGGGGUUUGGGGAAAGUAUUAUGUUACGCCGUUCGGAUCUGCACUU` has a log2 enrichment of 1.18.
`GUCCUGUGCUACACAUCGUAUGUACCGAAUCGGGGUGGGGUUUUUUUGGGGAAAGGGGAAAGUAUUAUGUUACGCCGUUCGGAUCUGCAC` gave a log2 enrichment of 0.937.
The log2 enrichment of `UUUCACAGAGAAGCAAAUGCUGGCACAAGGAUACCCUGCUUACACGACAUCGUGCGCCUGGCUGGGGUACUCAGAUGACACGUUGAAGCA` is reported as -0.112.

Sample 2
Target: PABPC1L2, full length, GST fusion (mouse, UniProt A0ABA7IW68)
Method: RNAcompete
Form: RNA
Matrix: in vitro
Concentration: 20 nM
Setting: 7-mer, probes averaged, single round
Baseline: mean of 7-mers
Direction: higher = stronger binding
Target sequence (chain): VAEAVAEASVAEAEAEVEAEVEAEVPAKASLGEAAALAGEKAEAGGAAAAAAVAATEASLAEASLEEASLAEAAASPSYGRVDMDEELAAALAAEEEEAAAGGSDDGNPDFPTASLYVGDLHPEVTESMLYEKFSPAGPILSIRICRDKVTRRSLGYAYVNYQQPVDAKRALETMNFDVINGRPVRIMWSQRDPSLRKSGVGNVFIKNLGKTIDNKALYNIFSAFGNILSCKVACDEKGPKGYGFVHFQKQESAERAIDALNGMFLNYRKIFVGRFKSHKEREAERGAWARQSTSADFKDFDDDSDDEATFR
The 7-mer Z-score of `UACUUUC` is reported as -0.286.
The 7-mer Z-score of `UGAAAAA` is reported as 10.8.
The 7-mer Z-score of `CCAGUAG` is reported as -0.228.
`ACAUCAU` has a 7-mer Z-score of -0.0156.
For `GACUUCC`, the 7-mer Z-score was -0.273.
The 7-mer Z-score of `AUGUUCA` is reported as -0.327.
The 7-mer Z-score of `UGCAUUG` is reported as -0.253.
With `CAGCACG` the 7-mer Z-score was 0.046.

Sample 3
Target: Histone acetyltransferase KAT6A, winged helix 1, GST fusion (KAT6A, Homo sapiens, UniProt Q92794, residues 1-85)
Method: protein binding microarray
Form: double-stranded DNA, one strand shown
Matrix: in vitro
Concentration: not given
Setting: 8-mer, flanks averaged, mean of 2 arrays, mostly near background
Baseline: not given
Direction: higher = stronger binding
Target sequence (chain): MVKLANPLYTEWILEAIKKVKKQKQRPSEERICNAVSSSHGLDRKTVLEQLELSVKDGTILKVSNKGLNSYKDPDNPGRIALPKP
`GGTAAGTA` has an E-score of 0.049.
`AGCTAACG` has an E-score of -0.0464.
For `AACCCCTT`, the E-score was -0.0367.
`GCGCTCCA` gave an E-score of 0.25.
For `GCGTTAGA`, the E-score was 0.0615.
With `ACCATAAA` the E-score was -0.0529.
With `ATGACTTA` the E-score was -0.229.
With `CTGCTGAC` the E-score was -0.119.

Single results of other studies
With `Cn1ncc(C(=O)O)c1NC(=O)c1cc(Br)nn1-c1ncccc1Cl` the remaining compound was 61.5% (mouse, microsomes or S9; 2 µM, 0.5 h).
